Assay results gathered from unrelated publications.
Each numbered part is a random draw from the data of one study; scales do not carry over between parts.
UniProt P51451, sequence (whole entry, looked up): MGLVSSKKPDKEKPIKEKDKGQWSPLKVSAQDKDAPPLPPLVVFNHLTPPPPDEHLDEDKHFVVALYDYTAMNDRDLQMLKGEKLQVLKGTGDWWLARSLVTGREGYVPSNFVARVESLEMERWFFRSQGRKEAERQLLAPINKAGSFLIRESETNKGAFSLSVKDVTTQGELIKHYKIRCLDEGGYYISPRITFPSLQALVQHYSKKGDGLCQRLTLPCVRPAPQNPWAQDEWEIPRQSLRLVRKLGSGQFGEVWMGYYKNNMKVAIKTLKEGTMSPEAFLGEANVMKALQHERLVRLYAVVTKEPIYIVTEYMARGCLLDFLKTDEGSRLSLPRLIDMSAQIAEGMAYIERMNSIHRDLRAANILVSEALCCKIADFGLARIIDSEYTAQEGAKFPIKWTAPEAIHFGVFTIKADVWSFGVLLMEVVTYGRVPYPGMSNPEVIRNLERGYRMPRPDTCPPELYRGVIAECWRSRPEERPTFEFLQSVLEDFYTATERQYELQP
UniProt Q9HAZ1, sequence (whole entry, looked up): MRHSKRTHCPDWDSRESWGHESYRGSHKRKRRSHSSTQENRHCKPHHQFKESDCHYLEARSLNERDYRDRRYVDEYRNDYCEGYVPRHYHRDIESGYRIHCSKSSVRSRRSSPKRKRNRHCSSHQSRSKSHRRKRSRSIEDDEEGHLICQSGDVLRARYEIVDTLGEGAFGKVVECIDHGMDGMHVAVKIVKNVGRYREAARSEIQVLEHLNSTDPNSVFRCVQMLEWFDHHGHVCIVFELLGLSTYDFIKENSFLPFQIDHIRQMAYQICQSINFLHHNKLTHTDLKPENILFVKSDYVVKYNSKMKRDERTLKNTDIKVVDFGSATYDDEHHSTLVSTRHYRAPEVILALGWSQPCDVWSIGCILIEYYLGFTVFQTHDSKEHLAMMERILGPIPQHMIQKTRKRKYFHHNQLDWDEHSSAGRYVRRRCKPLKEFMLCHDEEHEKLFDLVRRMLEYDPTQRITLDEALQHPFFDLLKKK
UniProt Q15759, sequence (whole entry, looked up): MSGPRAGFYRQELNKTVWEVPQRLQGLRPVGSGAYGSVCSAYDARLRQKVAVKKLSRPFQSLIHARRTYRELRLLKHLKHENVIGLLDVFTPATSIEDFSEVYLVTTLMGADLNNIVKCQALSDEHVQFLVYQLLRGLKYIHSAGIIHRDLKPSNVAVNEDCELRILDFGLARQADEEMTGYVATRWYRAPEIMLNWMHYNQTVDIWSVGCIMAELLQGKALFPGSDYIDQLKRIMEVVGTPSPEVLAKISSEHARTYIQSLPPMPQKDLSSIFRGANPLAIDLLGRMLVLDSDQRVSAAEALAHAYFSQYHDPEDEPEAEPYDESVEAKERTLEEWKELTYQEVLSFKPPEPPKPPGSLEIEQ
UniProt P49674, sequence (whole entry, looked up): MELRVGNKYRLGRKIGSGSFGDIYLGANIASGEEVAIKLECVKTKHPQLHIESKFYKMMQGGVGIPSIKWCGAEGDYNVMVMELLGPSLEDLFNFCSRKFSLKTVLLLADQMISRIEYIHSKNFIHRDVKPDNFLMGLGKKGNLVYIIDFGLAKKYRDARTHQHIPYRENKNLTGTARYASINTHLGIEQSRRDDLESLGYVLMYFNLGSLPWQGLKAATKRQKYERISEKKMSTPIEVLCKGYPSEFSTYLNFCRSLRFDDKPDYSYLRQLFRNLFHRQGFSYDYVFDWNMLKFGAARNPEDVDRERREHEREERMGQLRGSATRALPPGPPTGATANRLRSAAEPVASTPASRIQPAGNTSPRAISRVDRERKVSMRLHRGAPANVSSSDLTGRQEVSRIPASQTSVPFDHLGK
UniProt Q96J92, sequence (whole entry, looked up): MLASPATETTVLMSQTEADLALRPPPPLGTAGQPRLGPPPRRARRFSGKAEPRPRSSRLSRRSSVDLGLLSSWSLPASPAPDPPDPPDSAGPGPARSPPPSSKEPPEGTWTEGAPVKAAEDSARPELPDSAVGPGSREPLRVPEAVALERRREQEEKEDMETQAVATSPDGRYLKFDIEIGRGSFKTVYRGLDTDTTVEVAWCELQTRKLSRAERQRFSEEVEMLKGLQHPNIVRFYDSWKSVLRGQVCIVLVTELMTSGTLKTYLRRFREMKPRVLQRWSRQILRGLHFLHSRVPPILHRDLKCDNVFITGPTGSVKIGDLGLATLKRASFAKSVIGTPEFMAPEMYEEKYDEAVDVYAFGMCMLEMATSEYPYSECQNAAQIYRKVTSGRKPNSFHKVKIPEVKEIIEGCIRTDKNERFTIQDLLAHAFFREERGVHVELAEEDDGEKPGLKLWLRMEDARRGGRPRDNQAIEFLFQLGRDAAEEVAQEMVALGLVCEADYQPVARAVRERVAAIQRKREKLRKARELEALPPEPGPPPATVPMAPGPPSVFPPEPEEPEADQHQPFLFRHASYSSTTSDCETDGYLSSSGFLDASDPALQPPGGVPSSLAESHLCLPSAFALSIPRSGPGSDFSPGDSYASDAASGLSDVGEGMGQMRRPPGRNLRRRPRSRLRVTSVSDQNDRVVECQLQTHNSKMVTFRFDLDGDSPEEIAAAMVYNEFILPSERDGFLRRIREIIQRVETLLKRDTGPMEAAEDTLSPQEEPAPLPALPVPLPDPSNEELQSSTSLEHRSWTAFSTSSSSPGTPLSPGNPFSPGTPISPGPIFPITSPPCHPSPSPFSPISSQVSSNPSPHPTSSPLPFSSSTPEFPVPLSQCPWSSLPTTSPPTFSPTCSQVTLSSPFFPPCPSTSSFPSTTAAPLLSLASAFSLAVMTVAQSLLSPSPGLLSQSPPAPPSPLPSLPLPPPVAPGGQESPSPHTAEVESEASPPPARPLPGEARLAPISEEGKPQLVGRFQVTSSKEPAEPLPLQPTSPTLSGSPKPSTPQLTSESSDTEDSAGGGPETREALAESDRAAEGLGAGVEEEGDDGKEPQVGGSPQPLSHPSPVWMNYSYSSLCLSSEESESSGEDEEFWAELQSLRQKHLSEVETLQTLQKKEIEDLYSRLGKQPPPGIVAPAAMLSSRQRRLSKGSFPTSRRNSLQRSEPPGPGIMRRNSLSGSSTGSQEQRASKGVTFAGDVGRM
UniProt Q6P2M8, sequence (whole entry, looked up): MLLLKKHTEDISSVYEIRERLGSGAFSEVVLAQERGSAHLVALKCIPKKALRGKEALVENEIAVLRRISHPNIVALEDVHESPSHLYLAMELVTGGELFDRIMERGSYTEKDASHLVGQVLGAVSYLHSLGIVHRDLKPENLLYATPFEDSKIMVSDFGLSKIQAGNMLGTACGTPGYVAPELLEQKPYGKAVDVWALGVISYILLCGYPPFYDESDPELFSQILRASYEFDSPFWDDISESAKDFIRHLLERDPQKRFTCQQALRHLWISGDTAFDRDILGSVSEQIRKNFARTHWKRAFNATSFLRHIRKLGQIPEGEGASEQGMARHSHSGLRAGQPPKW
UniProt Q8TDX7, sequence (whole entry, looked up): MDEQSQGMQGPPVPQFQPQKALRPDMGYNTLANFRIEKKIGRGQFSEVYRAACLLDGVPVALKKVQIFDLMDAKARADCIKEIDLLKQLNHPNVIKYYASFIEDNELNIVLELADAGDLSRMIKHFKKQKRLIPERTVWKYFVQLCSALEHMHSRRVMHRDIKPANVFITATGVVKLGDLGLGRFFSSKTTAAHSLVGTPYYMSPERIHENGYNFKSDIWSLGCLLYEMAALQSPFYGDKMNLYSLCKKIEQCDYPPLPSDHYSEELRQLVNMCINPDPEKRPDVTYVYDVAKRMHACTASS
UniProt Q16539, sequence (whole entry, looked up): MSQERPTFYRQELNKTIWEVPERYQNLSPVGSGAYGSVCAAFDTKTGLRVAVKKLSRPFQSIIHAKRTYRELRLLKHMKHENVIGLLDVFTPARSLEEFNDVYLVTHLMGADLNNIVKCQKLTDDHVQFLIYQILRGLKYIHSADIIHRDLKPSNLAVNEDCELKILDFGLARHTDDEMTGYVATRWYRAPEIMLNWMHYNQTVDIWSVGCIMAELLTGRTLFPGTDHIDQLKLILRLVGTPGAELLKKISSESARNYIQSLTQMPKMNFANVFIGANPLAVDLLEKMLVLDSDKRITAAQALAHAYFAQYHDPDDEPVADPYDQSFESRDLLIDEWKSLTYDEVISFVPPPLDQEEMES
UniProt Q7KZI7, sequence (whole entry, looked up): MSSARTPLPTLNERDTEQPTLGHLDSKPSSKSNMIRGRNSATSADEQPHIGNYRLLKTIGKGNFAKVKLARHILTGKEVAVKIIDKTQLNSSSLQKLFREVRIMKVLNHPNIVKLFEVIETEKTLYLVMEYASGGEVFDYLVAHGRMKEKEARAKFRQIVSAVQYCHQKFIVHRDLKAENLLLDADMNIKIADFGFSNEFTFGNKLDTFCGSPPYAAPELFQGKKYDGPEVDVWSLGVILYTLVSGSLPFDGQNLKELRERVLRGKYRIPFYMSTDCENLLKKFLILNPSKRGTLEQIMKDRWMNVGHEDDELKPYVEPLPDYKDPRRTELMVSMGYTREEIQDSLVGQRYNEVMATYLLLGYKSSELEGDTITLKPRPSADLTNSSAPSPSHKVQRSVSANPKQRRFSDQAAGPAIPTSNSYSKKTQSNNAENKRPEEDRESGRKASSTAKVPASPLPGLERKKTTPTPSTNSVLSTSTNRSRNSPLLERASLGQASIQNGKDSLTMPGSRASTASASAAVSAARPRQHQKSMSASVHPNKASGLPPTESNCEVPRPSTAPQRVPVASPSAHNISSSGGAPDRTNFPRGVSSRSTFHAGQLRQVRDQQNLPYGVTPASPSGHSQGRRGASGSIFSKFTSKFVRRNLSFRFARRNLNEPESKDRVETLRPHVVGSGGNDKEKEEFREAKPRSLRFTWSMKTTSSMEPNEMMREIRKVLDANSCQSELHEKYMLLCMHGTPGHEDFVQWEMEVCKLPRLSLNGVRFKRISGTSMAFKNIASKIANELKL

Block 1 — Compound: O=C1C(Cl)=C(N2C(=O)CCC2=O)C(=O)c2ccccc21; read-out: enzyme activity; action: inhibitor; concentration: 0.5 µM; reference: control; measurement: remaining activity
CLK4 (Homo sapiens, UniProt Q9HAZ1): 94.1%
PAK3 (Homo sapiens, UniProt O75914): 104%
MINK1 (Homo sapiens, UniProt Q8N4C8): 95.6%
TXK (Homo sapiens, UniProt P42681): 95.5%
MARK2 (Homo sapiens, UniProt Q7KZI7): 79.4%
MET (Homo sapiens, UniProt P08581): 109%
PNCK (Homo sapiens, UniProt Q6P2M8): 100%
AKT2 (Homo sapiens, UniProt P31751): 96.3%
GRK4 (Homo sapiens, UniProt P32298): 97.6%
MAPK14 (Homo sapiens, UniProt Q16539): 88.1%
MAP2K1 (Homo sapiens, UniProt Q02750): 76.5%
Cyclin-dependent kinase 1, with cyclin A (CDK1, Homo sapiens, UniProt P06493): 99.8%
MAPK11 (Homo sapiens, UniProt Q15759): 105%

Block 2 — method: aptamer microarray, sandwich; molecule type: DNA with 2'F-ANA; medium: in vitro; concentration: 200 nM; with: Cy3 exosite-II aptamer, 400 nM; direction: higher = stronger binding; measurement: mean fluorescence intensity; sequence: GGTTGGTGTGGTTGG
Target: Prothrombin, mature alpha-thrombin (F2, Homo sapiens, UniProt P00734)
Setting: whole 15-mer aptamer, many near background
2'F-ANA at 5 12 13 15: 107 a.u.
2'F-ANA at 1 3 6 9 10 11 13 14 15: 58.7 a.u.
2'F-ANA at 2 3 4 6 8 9 10 11 12 13 14: 154 a.u.
2'F-ANA at 1 2 5 7 8 11: 54.4 a.u.
2'F-ANA at 1 2 3 5 6 7 9 10 13: 54.5 a.u.
2'F-ANA at 1 3 5 6 7 9 10 13 14 15: 50.4 a.u.
2'F-ANA at 2 3 7 8 9 11 12 14: 518 a.u.
2'F-ANA at 2 3 5 7 8 12 13 14: 60.8 a.u.

Block 3 — read-out: cell-free assay; method: competition with immobilised ligand; concentration: 1 µM; measurement: remaining binding
Structure (SMILES): O=C(NC[C@@H]1[C@H]2CN(C(=O)OCc3cc(C(F)(F)F)cc(C(F)(F)F)c3)C[C@@H]12)c1ccc2[nH]nnc2c1
ABL2 (Homo sapiens, UniProt P42684): 98%
STK39 (Homo sapiens, UniProt Q9UEW8): 80%
FLT3 (Homo sapiens, UniProt P36888, D835V): 100%
NEK6 (Homo sapiens, UniProt Q9HC98): 100%
BLK (Homo sapiens, UniProt P51451): 100%
CSNK1E (Homo sapiens, UniProt P49674): 100%
NEK7 (Homo sapiens, UniProt Q8TDX7): 83%
CAMKK2 (Homo sapiens, UniProt Q96RR4): 91%
WNK4 (Homo sapiens, UniProt Q96J92): 89%

Further values, each from its own experiment
HMGA1 (Homo sapiens, UniProt P17096)
interaction screen (H2BC12L (Homo sapiens, UniProt P57053); cross-linking MS; hits only): cross-linked
